Earlier results, collected from citations in different studies.
Numbered parts are unrelated; values within a part may stem from several laboratories.
Chain of UniProt P45481 (whole entry, looked up): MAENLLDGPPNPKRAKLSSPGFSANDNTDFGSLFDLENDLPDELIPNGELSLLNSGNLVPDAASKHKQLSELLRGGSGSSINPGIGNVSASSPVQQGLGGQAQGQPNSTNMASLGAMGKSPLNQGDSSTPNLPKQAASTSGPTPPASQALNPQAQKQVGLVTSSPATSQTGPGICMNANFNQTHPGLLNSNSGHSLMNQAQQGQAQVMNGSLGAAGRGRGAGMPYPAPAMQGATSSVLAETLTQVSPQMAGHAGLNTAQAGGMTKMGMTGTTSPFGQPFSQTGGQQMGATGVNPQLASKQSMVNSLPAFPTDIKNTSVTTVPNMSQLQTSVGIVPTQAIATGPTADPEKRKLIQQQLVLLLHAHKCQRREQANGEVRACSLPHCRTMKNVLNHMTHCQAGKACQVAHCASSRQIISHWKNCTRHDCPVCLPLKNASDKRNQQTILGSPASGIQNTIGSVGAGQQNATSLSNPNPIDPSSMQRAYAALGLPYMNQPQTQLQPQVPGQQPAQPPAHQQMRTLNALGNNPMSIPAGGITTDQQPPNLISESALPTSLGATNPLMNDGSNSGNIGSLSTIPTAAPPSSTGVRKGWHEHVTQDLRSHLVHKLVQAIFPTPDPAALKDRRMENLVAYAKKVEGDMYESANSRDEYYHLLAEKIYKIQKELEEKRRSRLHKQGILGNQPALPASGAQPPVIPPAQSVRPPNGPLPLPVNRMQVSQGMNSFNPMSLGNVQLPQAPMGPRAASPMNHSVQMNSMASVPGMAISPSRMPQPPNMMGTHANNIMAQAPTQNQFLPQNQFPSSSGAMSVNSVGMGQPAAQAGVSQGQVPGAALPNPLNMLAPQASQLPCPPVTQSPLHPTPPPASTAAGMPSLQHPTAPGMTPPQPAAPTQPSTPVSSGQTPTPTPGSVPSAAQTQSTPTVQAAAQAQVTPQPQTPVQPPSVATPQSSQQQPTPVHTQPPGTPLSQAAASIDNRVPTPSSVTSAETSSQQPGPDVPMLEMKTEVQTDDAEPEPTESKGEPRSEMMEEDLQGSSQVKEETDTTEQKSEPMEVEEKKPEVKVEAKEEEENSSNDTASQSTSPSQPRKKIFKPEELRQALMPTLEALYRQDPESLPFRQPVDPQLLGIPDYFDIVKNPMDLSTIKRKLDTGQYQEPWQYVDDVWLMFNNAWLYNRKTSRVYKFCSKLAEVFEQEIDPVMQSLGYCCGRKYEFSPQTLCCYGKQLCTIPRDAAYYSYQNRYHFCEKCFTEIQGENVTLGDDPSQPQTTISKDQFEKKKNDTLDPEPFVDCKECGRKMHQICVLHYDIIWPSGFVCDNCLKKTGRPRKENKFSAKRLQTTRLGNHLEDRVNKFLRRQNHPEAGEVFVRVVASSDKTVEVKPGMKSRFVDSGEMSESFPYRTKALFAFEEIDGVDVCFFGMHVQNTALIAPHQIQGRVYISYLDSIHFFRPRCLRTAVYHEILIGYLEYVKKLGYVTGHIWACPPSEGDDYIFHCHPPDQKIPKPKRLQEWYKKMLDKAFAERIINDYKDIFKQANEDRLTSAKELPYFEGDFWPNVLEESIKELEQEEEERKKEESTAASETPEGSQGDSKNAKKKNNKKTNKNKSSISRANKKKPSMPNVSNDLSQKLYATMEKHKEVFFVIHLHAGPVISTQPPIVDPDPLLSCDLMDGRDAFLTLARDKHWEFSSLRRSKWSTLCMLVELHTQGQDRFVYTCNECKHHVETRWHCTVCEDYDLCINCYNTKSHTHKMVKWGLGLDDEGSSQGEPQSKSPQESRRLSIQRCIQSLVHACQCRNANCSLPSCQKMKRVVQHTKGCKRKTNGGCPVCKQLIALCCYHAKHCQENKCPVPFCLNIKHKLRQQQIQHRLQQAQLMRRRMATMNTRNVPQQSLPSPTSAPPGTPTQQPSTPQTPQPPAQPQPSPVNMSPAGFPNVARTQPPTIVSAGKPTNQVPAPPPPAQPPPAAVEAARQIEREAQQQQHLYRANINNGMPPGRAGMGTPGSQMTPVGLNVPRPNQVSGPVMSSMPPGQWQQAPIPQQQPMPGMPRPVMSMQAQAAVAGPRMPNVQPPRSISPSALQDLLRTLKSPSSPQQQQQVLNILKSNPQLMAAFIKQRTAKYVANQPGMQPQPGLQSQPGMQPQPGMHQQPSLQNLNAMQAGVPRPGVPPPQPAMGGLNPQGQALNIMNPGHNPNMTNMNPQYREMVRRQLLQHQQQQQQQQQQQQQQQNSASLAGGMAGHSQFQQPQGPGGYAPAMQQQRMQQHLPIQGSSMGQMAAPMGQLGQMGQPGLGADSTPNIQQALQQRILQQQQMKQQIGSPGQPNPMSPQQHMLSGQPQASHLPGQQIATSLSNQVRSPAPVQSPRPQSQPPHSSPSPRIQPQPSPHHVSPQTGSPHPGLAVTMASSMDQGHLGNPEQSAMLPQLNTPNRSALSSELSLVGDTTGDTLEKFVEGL
Chain of UniProt P02452 (whole entry, looked up): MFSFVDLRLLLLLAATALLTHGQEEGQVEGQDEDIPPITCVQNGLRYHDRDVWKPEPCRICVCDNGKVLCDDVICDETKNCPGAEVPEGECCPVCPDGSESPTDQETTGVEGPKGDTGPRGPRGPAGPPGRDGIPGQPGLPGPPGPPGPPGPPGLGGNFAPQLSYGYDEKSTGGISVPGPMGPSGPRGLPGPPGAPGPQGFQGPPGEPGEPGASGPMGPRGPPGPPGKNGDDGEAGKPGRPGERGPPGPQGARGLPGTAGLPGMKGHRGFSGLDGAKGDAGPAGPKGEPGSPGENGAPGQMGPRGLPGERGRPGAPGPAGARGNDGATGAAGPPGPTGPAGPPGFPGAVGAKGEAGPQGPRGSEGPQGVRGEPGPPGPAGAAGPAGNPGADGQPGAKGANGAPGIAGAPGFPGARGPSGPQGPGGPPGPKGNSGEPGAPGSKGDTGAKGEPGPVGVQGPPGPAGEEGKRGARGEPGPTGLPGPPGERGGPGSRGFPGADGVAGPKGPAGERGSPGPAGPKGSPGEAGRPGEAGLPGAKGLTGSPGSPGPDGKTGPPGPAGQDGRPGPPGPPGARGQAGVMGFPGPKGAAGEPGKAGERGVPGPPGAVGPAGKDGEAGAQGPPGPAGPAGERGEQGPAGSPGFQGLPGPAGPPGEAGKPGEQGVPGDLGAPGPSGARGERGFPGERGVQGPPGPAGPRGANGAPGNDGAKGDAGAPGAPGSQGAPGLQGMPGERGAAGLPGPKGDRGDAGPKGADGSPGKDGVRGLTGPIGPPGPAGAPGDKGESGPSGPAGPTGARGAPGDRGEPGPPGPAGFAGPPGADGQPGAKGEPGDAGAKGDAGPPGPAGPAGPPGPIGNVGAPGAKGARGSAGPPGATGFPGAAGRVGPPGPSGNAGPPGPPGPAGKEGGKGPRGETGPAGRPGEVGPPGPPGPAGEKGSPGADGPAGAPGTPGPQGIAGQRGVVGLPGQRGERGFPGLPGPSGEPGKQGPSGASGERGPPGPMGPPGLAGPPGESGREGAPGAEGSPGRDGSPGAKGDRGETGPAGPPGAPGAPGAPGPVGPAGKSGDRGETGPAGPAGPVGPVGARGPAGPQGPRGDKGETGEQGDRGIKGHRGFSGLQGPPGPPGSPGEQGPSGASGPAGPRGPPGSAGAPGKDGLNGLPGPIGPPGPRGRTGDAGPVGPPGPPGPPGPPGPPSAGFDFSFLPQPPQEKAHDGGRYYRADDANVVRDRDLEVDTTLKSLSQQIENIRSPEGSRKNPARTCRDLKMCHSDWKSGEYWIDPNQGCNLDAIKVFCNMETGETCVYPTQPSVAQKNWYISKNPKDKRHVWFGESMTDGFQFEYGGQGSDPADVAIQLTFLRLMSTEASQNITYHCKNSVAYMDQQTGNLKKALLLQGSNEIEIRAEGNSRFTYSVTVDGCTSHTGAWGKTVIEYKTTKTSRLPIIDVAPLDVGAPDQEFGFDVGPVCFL

Block 1
Molecule: B1 (CCL1)
Read-out: IP accumulation
Mode: agonist
Endpoint: EC50
B1: CCL1; sequence looked up; chain KSMQVPFSRCCFSFAEQEIPLRAILCYRNTSSICSNEGLIFKLKRGKEACALDTVGWVQRHRKMLRHCPSKRK
CCR8 G206A mutant: 67 nM
CCR8 F88A mutant: 10 nM
CCR8 F254A mutant: 109 nM

Block 2
Organism: Escherichia coli
Form: peptide
Endpoint: MIC
MKLRRRLRTRMVALLVLGVLFLMLLFFIIFLRRMMLMRRFRA: 100 µM
MKQPSKTHKTFKYFLILFLKSVKKVAGFKKKKHYHWRRSYKESCFRKRT: 25 µM
MEAFKKPRPLFLVKLLTRFLEARAGLGSYRIEFIFKKFGVVKFSSLLR: 25 µM
LRPAFKVSK: > 1000 µg/mL
KWIKIWFIWRRIKWRK: 15.6 µg/mL
FPLTWLKWWKWKK: 31.2 µg/mL
MGWWFPPKTGNAGKAKFKAAAAKWGGLFLAAAKWEANGEWGGFPKGY: 25 µM
MWIWKKPRWKGRRLKKKEEKEELGDYIYLYCKVKVRLFGFLPYFISKTA: 12.5 µM

Single results of other studies
RRANAALKAGELYKCILY — Kd (Collagen alpha-1(I) chain (Homo sapiens, UniProt P02452); binding): 10 nM
HIF1A CTAD C800V (Homo sapiens) — Kd (CBP TAZ1 domain (Mus musculus, UniProt P45481); fluorescence anisotropy): 7.4 nM
insulin (human) — ADDL binding (neurons; outcome: decreased; concentration not given): decreased
LAHAAHFR — retention coefficient S (isocratic RP-HPLC, C18 column; peptide, water/acetonitrile, 0.1% TFA; 25 °C): 21.1
pegcetacoplan — AUC(0-inf) (human; 1440 mg single dose, arithmetic mean): 98000 µg·h/mL

Repeated from above (block 2):
MKLRRRLRTRMVALLVLGVLFLMLLFFIIFLRRMMLMRRFRA: 100 µM
MKQPSKTHKTFKYFLILFLKSVKKVAGFKKKKHYHWRRSYKESCFRKRT: 25 µM
